Published values of several laboratories.
Every numbered part comes from another study and shows a few of its results, in no order.
Sequence of UniProt P08913 (whole entry, looked up): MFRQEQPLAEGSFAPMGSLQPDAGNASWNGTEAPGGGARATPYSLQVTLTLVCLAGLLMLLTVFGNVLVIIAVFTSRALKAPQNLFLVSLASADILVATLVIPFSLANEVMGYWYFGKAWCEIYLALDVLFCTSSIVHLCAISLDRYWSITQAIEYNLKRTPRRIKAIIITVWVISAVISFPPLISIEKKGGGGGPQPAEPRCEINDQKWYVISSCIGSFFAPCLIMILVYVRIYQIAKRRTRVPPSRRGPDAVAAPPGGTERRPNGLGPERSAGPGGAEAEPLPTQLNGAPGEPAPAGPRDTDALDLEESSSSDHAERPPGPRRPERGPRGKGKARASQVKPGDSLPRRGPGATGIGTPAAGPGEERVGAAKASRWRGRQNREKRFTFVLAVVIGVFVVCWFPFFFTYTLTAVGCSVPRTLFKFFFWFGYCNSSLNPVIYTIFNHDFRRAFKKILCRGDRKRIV
Sequence of UniProt P21728 (whole entry, looked up): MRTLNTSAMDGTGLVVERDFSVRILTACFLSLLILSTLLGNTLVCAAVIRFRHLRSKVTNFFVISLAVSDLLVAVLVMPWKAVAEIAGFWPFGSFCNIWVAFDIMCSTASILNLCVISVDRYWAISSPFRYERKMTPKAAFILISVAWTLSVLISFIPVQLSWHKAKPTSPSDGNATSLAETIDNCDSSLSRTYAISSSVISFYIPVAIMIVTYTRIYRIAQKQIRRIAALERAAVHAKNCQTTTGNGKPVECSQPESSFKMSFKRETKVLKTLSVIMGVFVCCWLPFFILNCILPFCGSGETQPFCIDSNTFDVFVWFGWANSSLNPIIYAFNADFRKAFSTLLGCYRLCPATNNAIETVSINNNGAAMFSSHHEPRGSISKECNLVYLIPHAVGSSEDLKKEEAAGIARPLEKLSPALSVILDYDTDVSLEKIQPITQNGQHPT
Sequence of UniProt P07550 (whole entry, looked up): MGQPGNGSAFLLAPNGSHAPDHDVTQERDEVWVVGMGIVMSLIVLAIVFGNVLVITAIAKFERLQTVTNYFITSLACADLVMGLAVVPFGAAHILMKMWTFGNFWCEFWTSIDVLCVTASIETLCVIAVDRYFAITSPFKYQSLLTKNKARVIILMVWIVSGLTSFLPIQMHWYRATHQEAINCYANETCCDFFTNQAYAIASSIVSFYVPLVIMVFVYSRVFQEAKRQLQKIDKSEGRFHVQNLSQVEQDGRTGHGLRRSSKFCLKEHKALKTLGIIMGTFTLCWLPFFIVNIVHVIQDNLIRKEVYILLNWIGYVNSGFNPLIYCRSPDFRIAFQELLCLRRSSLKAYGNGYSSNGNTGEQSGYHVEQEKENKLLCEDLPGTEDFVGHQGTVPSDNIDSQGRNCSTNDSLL
Sequence of UniProt O75417 (whole entry, unmodified, looked up): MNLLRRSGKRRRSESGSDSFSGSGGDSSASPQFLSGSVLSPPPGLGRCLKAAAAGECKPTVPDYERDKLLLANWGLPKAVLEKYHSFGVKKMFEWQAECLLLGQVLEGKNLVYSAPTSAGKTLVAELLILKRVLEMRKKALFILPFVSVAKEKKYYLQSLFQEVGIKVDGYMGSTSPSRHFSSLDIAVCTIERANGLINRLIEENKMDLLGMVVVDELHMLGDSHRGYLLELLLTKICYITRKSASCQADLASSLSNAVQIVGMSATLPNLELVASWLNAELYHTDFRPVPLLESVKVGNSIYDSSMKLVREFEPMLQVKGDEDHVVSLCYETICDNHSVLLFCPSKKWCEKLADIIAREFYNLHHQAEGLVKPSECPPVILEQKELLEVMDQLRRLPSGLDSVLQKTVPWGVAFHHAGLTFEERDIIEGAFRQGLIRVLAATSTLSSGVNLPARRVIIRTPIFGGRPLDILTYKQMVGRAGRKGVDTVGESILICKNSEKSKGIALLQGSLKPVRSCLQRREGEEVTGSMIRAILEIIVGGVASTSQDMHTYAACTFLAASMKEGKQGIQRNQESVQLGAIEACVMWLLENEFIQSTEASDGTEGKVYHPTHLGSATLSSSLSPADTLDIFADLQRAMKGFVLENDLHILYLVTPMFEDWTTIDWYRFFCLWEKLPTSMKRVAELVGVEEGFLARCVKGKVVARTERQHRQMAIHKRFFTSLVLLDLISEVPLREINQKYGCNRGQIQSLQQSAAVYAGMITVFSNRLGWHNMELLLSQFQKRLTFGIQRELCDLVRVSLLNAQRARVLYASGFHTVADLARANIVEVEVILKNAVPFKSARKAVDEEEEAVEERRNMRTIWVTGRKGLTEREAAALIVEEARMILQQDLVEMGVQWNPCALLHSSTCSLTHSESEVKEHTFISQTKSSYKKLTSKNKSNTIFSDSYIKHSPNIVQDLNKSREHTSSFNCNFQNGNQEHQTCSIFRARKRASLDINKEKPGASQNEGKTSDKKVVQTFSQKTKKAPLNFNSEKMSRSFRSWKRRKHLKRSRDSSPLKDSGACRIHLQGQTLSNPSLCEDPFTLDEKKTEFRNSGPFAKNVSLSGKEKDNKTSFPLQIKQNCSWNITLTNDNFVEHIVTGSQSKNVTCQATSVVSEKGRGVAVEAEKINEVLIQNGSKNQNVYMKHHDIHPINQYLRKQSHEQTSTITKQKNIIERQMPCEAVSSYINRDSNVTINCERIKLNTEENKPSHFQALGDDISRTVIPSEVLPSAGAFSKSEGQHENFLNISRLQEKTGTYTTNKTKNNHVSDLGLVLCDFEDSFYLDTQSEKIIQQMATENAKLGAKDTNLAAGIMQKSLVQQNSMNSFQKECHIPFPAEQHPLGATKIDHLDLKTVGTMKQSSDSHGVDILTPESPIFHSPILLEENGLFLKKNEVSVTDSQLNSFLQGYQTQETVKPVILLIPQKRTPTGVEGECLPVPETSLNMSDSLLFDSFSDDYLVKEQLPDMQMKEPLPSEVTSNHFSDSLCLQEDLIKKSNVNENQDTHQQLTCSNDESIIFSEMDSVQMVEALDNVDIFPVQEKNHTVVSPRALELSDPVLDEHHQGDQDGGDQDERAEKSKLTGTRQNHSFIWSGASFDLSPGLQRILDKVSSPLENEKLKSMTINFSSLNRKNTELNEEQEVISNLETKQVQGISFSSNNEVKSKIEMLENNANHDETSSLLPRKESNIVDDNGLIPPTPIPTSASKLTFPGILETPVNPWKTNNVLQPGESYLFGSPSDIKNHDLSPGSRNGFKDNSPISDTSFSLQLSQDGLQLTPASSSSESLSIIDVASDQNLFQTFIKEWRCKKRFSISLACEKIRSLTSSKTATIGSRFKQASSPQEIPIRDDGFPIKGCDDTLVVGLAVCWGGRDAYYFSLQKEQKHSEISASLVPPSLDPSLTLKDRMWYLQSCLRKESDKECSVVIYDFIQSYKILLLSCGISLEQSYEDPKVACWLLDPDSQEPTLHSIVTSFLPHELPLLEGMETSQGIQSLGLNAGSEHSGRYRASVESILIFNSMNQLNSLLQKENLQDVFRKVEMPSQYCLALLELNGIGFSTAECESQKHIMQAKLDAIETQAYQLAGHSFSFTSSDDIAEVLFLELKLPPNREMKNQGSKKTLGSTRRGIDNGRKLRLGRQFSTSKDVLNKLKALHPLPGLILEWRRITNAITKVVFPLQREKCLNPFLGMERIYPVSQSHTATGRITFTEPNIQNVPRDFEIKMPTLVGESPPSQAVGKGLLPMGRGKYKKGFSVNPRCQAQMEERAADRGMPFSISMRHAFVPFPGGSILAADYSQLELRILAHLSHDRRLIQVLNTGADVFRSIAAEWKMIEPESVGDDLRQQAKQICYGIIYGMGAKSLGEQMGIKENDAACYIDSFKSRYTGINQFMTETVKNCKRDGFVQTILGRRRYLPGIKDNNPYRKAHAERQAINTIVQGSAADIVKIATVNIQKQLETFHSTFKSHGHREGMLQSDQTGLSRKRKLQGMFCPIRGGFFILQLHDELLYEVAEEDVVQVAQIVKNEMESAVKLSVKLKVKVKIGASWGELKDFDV
Sequence of UniProt P13945 (whole entry, looked up): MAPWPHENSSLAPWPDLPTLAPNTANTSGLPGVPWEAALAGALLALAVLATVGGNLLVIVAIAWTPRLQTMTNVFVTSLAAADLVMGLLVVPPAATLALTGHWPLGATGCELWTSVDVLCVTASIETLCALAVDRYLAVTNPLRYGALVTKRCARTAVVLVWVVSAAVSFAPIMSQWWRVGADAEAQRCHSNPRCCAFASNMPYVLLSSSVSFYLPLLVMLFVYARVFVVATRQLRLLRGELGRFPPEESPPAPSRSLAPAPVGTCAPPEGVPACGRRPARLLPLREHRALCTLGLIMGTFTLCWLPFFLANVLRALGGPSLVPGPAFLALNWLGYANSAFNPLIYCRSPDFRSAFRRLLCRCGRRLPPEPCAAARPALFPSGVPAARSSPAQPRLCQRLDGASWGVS

Series 1 — cell line: mouse MPNST tumor cells; technique: high-content nuclear imaging; refers to: cell number; tested at: 10 µM; time: 12 h; setting: mean of 2 replicates; reference: plate mean; reading: higher = more cells; quantity: nuclei count
O=C(NCc1ccc(F)cc1)C1CCN(S(=O)(=O)c2cc(Cl)cc(Cl)c2)CC1: 0.307 z-score
Cc1nc2ccc(NC(=O)Nc3ccnc4cccnc34)cc2o1: 3.81 z-score
COc1ccc(C#Cc2ccc(C(=O)N3CCC[C@@H](O)C3)c(F)c2)cc1: -0.0105 z-score
COc1cc(N2CCC(O)CC2)ccc1Nc1cc(Nc2ccccc2S(=O)(=O)C(C)C)c2cc[nH]c2n1: 1.53 z-score
O=C1S/C(=C\c2ccc(OCc3cccc(B(O)O)c3)cc2)C(=O)N1Cc1ccc(F)cc1: 2.14 z-score

Series 2 — effect on: cell-free assay; tested at: 10 µM; quantity: inhibition
SMILES: Cc1c(C(=O)O)cc(-c2ccc(C3CCNCC3)cc2)c2ccc(-c3ccc(C(F)(F)F)cc3)cc12
ADRB3 (Homo sapiens, UniProt P13945): 57.5%
ADRB2 (Homo sapiens, UniProt P07550): 27.8%
ADRA2A (Homo sapiens, UniProt P08913): 34.8%
DRD1 (Homo sapiens, UniProt P21728): 61.4%

Series 3 — effect on: enzyme activity; action: inhibitor; tested at: 0.5 µM; reference: control; quantity: remaining activity
Target: Mitogen-activated protein kinase 8 (MAPK8, Homo sapiens, UniProt P45983)
Sequence of UniProt P45983 (whole entry, looked up): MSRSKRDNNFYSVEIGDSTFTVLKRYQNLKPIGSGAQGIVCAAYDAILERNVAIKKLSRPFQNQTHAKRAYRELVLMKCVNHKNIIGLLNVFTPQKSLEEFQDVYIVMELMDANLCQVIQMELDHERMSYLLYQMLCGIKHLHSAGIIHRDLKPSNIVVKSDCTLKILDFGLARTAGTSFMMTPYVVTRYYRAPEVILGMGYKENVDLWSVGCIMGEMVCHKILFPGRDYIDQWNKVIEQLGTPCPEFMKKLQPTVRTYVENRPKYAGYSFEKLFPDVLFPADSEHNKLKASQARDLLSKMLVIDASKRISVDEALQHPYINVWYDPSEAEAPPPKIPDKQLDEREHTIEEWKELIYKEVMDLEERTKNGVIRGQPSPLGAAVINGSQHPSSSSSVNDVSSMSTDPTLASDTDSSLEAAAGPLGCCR
O=C(NC(NC(=S)Nc1ccc(F)c([N+](=O)[O-])c1)C(Cl)(Cl)Cl)C(c1ccccc1)c1ccccc1 (centres unmarked): 82.1%
C[C@@H]1CCN(C(=O)CC#N)C[C@@H]1N(C)c1ncnc2[nH]ccc12: 108%
CCN(CC)C(=O)c1ccc(Nc2nc(OCC3CCCCC3)c3[nH]cnc3n2)cc1: 51.1%
CCOc1nc(NC(=O)Cc2cc(OC)ccc2OC)cc(N)c1C#N: 28.1%
O=C(Nc1cccc(Nc2nccc(Nc3cccc(C(F)(F)F)c3)n2)c1)C1CC1: 85.8%
c1ccc(-c2cnc(Nc3ccc(OCCN4CCCC4)cc3)s2)cc1: 92.4%
Cc1nc2cc3nc(-c4cccs4)cnc3cc2n1C: 93.7%
CCN(CC)CCNC(=O)c1c(C)[nH]c(/C=C2\C(=O)Nc3ccc(Cl)cc32)c1C: 97.2%
Ic1cccc(CSc2nnc(-c3ccncc3)o2)c1: 84.7%
COc1cc2ncnc(Nc3ccc(O)c(Br)c3)c2cc1OC: 101%
Cn1nc2c3c(cccc31)C(=O)c1ccccc1-2: 87.2%

Other studies, line by line
COc1ccc(-c2c(Nc3ccccn3)[nH]c3c(C4=CCCCC4)c(-c4ccccc4)nn3c2=O)cc1 — effective half-life (LC-MS/MS non-compartmental; human, plasma; oral, 200 mg twice daily, day 15 of cycle 1, multiple dose, geometric mean): 98.8 h
COc1ccc(-n2nc(C(N)=O)c3c2C(=O)N(c2ccc(N4CCCCC4=O)cc2)CC3)cc1 — viability (A-375; 100 µM, 60 h): 65.3%
CNCCC[C@]12CC[C@H](c3ccccc31)c1ccccc12 — remaining activity (DNA polymerase theta, ATPase domain (POLQ, Homo sapiens, UniProt O75417); enzyme activity; 77 µM): 107%

Some of these lines once more (series 3):
C[C@@H]1CCN(C(=O)CC#N)C[C@@H]1N(C)c1ncnc2[nH]ccc12: 108%
